Measured values of several laboratories.
Compare with care: the assays were run in different laboratories. Numbers after ± are the reported error.

Structure (SMILES)	assay	system	conditions	how to read	quantity	value
CCCC[C@H](NC(=O)CNC(=O)CNC(=O)c1ccc(NN)nc1)C(=O)N[C@H]1CC(=O)NCCCC[C@@H](C(N)=O)NC(=O)[C@H](Cc2c[nH]c3ccccc23)NC(=O)[C@H](CCCNC(=N)N)NC(=O)[C@@H](Cc2ccccc2)NC(=O)[C@H](Cc2c[nH]cn2)NC1=O [technetium-99m labelled]	–	C57 mouse, B16/F1 melanoma-bearing	intravenous, 4 h	baseline: tumour over skin	tissue uptake ratio	40.1
CCCC[C@H](NC(=O)CNC(=O)[C@H](CO)NC(=O)CNC(=O)c1ccc(NN)nc1)C(=O)N[C@H]1CC(=O)NCCCC[C@@H](C(N)=O)NC(=O)[C@H](Cc2c[nH]c3ccccc23)NC(=O)[C@H](CCCNC(=N)N)NC(=O)[C@@H](Cc2ccccc2)NC(=O)[C@H](Cc2c[nH]cn2)NC1=O [technetium-99m labelled]	–	C57 mouse, B16/F1 melanoma, heart	intravenous, 2 h	–	uptake	0.06 ± 0.02 %ID/g
N=C(N)NCCC[C@@H]1NC(=O)[C@H](CCCCNC(=O)CNC(=O)CNC(=O)CNC(=O)CC[C@H](NC(=O)CCOCCOCCOCCOCCNC(=O)CC[C@H](NC(=O)CN2CCN(CC(=O)O)CCN(CC(=O)O)CCN(CC(=O)O)CC2)C(=O)NCCOCCOCCOCCOCCC(=O)N[C@@H](CCC(=O)NCC(=O)NCC(=O)NCC(=O)NCCCC[C@@H]2NC(=O)[C@@H](Cc3ccccc3)NC(=O)[C@H](CC(=O)O)NC(=O)CNC(=O)[C@H](CCCNC(=N)N)NC2=O)C(=O)NCC(=O)NCC(=O)NCC(=O)NCCCC[C@@H]2NC(=O)[C@@H](Cc3ccccc3)NC(=O)[C@H](CC(=O)O)NC(=O)CNC(=O)[C@H](CCCNC(=N)N)NC2=O)C(=O)NCC(=O)NCC(=O)NCC(=O)NCCCC[C@@H]2NC(=O)[C@@H](Cc3ccccc3)NC(=O)[C@H](CC(=O)O)NC(=O)CNC(=O)[C@H](CCCNC(=N)N)NC2=O)NC(=O)[C@@H](Cc2ccccc2)NC(=O)[C@H](CC(=O)O)NC(=O)CNC1=O [indium-111 labelled]	–	athymic nude mice, female, U-87 MG glioma xenograft, U-87 MG tumour	intravenous, 3 µCi, 1 h	–	tissue uptake	10.2 ± 1.61 %ID/g
CSCC[C@H](NC(=O)[C@H](CC(C)C)NC(=O)[C@H](Cc1c[nH]cn1)NC(=O)CNC(=O)[C@@H](NC(=O)[C@H](C)NC(=O)[C@H](Cc1c[nH]c2ccccc12)NC(=O)[C@H](CCC(N)=O)NC(=O)CCCCCCCNC(=O)CCC(=O)Nc1ccc(CNC23CNCCNCC(N)(CNCCNC2)CNCCNC3)cc1)C(C)C)C(N)=O [copper-64 labelled]	–	female SCID mice, PC-3 xenograft, spleen	intravenous, 0.6 MBq, 4 h	–	tissue uptake	3.19 ± 1.21 %ID/g
CCCC[C@H](NC(=O)CCCCCCCNC(=O)c1ccc(NN)nc1)C(=O)N[C@H]1CC(=O)NCCCC[C@@H](C(N)=O)NC(=O)[C@H](Cc2c[nH]c3ccccc23)NC(=O)[C@H](CCCNC(=N)N)NC(=O)[C@@H](Cc2ccccc2)NC(=O)[C@H](Cc2c[nH]cn2)NC1=O [technetium-99m labelled]	–	C57 mouse, B16/F1 melanoma, brain	intravenous, 24 h	–	uptake	0.01 ± 0.01 %ID/g
N=C(N)NCCC[C@@H]1NC(=O)[C@H](CCCCNC(=O)c2ccc(CNC34CNCCNCC(NCc5ccc(C(=O)NCCCC[C@@H]6NC(=O)[C@@H](Cc7ccc(O)cc7)NC(=O)[C@H](CC(=O)O)NC(=O)CNC(=O)[C@H](CCCNC(=N)N)NC6=O)cc5)(CNCCNC3)CNCCNC4)cc2)NC(=O)[C@@H](Cc2ccc(O)cc2)NC(=O)[C@H](CC(=O)O)NC(=O)CNC1=O [copper-64 labelled]	HPLC	nude mouse, U-87 MG xenograft, liver	1 h post injection	–	intact compound	> 95%
N=C(N)NCCC[C@@H]1NC(=O)[C@H](CCCCNC(=O)CCOCCOCCOCCOCCNC(=O)CN2CCN(CC(=O)O)CCN(CC(=O)O)CCN(CC(=O)O)CC2)NC(=O)[C@@H](Cc2ccccc2)NC(=O)[C@H](CC(=O)O)NC(=O)CNC1=O [indium-111 labelled]	–	female athymic nude mice, intestine	intravenous, 3 µCi, 72 h, U-87 MG glioma xenograft	–	tissue uptake	0.67 ± 0.32 %ID/g
CSCC[C@H](NC(=O)[C@H](CC(C)C)NC(=O)[C@H](Cc1c[nH]cn1)NC(=O)CNC(=O)[C@@H](NC(=O)[C@H](C)NC(=O)[C@H](Cc1c[nH]c2ccccc12)NC(=O)[C@H](CCC(N)=O)NC(=O)CCCCCNC(=O)CNC(=O)CNC(=O)CNC(=O)CSC(C)=O)C(C)C)C(N)=O [technetium-99m labelled]	–	nude mouse, PC-3 xenograft, lung	90 min, added: excess unlabelled conjugate	–	tissue uptake	1.02 ± 0.21 %ID/g
N=C(N)NCCC[C@@H]1NC(=O)[C@H](CCCCNC(=O)CCOCCOCCOCCOCCNC(=O)CC[C@H](NC(=O)CCOCCOCCOCCOCCNC(=O)CC[C@H](NC(=O)CN2CCN(CC(=O)O)CCN(CC(=O)O)CCN(CC(=O)O)CC2)C(=O)NCCOCCOCCOCCOCCC(=O)N[C@@H](CCC(=O)NCCOCCOCCOCCOCCC(=O)NCCCC[C@@H]2NC(=O)[C@@H](Cc3ccccc3)NC(=O)[C@H](CC(=O)O)NC(=O)CNC(=O)[C@H](CCCNC(=N)N)NC2=O)C(=O)NCCOCCOCCOCCOCCC(=O)NCCCC[C@@H]2NC(=O)[C@@H](Cc3ccccc3)NC(=O)[C@H](CC(=O)O)NC(=O)CNC(=O)[C@H](CCCNC(=N)N)NC2=O)C(=O)NCCOCCOCCOCCOCCC(=O)NCCCC[C@@H]2NC(=O)[C@@H](Cc3ccccc3)NC(=O)[C@H](CC(=O)O)NC(=O)CNC(=O)[C@H](CCCNC(=N)N)NC2=O)NC(=O)[C@@H](Cc2ccccc2)NC(=O)[C@H](CC(=O)O)NC(=O)CNC1=O [indium-111 labelled]	–	athymic nude mice, female, U-87 MG glioma xenograft, tumour and liver	intravenous, 4 h	baseline: tumour over liver	tumour to tissue ratio	3.04 ± 1.03
CC(C)C[C@H](NC(=O)[C@H](Cc1ccc(O)cc1)NC(=O)[C@@H](CCCNC(=N)N)NC(=O)[C@@H](CO)NC(=O)[C@H](Cc1ccccc1)NC(=O)[C@H](CC1CCCCC1)NC(=O)[C@H](CC(=O)O)NC(=O)[C@H](CCC(=O)O)NC(=O)[C@H](CCC(=O)O)NC(=O)[C@H](CCC(=O)O)NC(=O)[C@H](CCC(=O)O)NC(=O)CCc1ccc(N(c2ccc(CCC(=O)O)cc2)c2ccc(-c3c4c(c(-c5ccc(N(c6ccc(CCC(=O)O)cc6)c6ccc(CCC(=O)O)cc6)cc5)c5nsnc35)N=S=N4)cc2)cc1)C(=O)N[C@@H](Cc1c[nH]c2ccccc12)C(=O)N[C@@H](CO)C(N)=O	–	nude mouse, lungs	dose not given, ex vivo, unblocked, unit not given	baseline: liver	signal intensity	0.11

Some of these lines once more:
Structure (SMILES)	assay	system	conditions	how to read	quantity	value
N=C(N)NCCC[C@@H]1NC(=O)[C@H](CCCCNC(=O)CNC(=O)CNC(=O)CNC(=O)CC[C@H](NC(=O)CCOCCOCCOCCOCCNC(=O)CC[C@H](NC(=O)CN2CCN(CC(=O)O)CCN(CC(=O)O)CCN(CC(=O)O)CC2)C(=O)NCCOCCOCCOCCOCCC(=O)N[C@@H](CCC(=O)NCC(=O)NCC(=O)NCC(=O)NCCCC[C@@H]2NC(=O)[C@@H](Cc3ccccc3)NC(=O)[C@H](CC(=O)O)NC(=O)CNC(=O)[C@H](CCCNC(=N)N)NC2=O)C(=O)NCC(=O)NCC(=O)NCC(=O)NCCCC[C@@H]2NC(=O)[C@@H](Cc3ccccc3)NC(=O)[C@H](CC(=O)O)NC(=O)CNC(=O)[C@H](CCCNC(=N)N)NC2=O)C(=O)NCC(=O)NCC(=O)NCC(=O)NCCCC[C@@H]2NC(=O)[C@@H](Cc3ccccc3)NC(=O)[C@H](CC(=O)O)NC(=O)CNC(=O)[C@H](CCCNC(=N)N)NC2=O)NC(=O)[C@@H](Cc2ccccc2)NC(=O)[C@H](CC(=O)O)NC(=O)CNC1=O [indium-111 labelled]	–	athymic nude mice, female, U-87 MG glioma xenograft, U-87 MG tumour	intravenous, 3 µCi, 1 h	–	tissue uptake	10.2 ± 1.61 %ID/g
